Assay results pooled from the literature.
A part holds a random share of what one study measured.
Sequence of UniProt P57078 (whole entry, looked up): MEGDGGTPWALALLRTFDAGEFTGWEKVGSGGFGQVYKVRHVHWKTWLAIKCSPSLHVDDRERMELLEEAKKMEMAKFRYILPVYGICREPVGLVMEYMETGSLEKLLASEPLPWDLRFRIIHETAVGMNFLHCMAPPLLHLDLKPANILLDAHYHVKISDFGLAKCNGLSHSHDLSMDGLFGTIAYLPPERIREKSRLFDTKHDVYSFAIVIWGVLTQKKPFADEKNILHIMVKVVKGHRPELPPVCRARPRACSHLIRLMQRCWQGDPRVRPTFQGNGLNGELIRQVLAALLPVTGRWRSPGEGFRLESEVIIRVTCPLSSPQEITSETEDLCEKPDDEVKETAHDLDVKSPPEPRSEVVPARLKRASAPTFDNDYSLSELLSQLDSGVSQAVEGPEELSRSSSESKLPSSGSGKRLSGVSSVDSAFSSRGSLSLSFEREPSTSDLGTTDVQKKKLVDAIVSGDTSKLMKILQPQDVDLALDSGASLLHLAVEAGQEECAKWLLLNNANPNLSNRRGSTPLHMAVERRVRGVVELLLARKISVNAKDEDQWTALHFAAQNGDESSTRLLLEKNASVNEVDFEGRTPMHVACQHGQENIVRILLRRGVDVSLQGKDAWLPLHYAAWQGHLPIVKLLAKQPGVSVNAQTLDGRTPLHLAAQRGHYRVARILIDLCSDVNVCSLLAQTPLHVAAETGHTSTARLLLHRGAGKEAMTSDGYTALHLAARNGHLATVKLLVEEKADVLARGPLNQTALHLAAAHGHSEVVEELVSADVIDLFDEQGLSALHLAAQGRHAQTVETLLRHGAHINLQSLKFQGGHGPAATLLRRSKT
Sequence of UniProt Q5S007 (whole entry, unmodified, looked up): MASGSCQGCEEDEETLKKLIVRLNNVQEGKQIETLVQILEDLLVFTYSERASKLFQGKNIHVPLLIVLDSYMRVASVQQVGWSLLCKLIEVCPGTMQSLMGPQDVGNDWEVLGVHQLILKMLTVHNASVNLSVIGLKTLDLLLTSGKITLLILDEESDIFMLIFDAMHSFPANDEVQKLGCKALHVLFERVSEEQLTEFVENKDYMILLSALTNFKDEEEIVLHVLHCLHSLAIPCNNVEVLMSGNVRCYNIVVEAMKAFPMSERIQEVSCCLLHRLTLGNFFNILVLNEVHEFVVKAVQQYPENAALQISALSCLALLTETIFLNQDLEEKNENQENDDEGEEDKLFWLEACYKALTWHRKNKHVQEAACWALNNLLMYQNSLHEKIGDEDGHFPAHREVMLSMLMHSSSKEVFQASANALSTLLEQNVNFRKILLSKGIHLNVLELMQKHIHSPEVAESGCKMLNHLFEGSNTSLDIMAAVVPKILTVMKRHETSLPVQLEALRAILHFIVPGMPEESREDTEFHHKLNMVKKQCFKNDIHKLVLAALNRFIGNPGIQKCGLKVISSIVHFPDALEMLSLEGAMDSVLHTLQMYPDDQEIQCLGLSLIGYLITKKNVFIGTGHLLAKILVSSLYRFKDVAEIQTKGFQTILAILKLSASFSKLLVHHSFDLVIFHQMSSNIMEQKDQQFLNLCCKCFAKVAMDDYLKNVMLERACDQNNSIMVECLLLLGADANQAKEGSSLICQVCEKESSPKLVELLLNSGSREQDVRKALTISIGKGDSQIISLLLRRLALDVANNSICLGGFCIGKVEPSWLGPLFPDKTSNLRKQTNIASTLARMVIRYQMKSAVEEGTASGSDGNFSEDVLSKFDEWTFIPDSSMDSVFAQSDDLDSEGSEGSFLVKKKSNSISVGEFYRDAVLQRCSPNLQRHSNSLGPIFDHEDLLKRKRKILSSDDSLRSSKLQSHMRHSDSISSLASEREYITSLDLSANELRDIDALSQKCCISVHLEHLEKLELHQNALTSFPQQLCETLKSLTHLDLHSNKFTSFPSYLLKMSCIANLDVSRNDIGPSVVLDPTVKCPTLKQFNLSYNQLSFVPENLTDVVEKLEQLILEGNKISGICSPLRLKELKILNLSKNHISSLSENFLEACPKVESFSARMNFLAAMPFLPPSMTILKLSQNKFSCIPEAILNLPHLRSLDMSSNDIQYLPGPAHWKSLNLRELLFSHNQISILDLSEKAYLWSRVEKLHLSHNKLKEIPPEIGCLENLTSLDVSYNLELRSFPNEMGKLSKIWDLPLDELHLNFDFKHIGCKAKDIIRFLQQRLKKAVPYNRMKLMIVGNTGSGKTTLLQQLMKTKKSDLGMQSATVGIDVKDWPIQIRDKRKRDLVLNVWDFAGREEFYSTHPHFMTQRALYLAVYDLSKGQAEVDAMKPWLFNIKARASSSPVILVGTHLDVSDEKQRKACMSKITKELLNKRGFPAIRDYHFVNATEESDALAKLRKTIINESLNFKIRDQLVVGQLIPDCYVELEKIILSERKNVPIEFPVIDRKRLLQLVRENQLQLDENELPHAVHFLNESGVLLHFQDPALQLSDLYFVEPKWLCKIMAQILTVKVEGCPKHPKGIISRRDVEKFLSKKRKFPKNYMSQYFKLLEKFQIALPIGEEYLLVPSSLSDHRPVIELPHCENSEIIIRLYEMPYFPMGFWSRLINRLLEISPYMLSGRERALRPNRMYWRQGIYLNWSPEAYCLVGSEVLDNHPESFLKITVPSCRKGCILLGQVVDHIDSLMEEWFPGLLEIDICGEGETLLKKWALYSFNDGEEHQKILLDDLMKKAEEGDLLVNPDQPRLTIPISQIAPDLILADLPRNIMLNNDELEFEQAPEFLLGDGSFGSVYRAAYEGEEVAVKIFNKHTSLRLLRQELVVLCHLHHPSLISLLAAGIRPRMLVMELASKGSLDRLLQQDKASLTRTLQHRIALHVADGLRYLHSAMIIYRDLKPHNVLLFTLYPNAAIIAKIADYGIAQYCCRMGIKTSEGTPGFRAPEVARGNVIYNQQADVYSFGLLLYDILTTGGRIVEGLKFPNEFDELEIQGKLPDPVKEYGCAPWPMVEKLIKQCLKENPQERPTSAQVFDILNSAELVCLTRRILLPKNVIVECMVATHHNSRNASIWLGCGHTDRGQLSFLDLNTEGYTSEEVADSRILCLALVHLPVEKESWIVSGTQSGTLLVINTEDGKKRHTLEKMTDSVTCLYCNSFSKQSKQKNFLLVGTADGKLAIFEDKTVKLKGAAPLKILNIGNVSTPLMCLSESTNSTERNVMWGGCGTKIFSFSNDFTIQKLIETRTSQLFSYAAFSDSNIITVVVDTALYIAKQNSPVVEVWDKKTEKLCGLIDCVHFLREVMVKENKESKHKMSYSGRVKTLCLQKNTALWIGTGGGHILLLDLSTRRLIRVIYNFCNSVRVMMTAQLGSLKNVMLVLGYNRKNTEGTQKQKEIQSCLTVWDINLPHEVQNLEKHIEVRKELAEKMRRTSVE
Sequence of UniProt Q99640 (whole entry, looked up): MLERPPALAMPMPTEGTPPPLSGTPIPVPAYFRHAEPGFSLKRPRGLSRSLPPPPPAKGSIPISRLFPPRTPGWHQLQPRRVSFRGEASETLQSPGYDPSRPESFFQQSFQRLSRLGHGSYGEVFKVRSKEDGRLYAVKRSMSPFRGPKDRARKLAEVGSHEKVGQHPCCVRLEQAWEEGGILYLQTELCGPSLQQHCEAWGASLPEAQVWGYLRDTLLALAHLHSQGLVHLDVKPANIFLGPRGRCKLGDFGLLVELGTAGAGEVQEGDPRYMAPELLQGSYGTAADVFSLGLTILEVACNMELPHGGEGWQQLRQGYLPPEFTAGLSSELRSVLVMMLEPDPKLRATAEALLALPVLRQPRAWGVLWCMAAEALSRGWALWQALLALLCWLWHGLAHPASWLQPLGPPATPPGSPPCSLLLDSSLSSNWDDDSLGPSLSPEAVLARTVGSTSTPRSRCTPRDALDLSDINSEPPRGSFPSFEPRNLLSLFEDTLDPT
Sequence of UniProt Q16659 (whole entry, looked up): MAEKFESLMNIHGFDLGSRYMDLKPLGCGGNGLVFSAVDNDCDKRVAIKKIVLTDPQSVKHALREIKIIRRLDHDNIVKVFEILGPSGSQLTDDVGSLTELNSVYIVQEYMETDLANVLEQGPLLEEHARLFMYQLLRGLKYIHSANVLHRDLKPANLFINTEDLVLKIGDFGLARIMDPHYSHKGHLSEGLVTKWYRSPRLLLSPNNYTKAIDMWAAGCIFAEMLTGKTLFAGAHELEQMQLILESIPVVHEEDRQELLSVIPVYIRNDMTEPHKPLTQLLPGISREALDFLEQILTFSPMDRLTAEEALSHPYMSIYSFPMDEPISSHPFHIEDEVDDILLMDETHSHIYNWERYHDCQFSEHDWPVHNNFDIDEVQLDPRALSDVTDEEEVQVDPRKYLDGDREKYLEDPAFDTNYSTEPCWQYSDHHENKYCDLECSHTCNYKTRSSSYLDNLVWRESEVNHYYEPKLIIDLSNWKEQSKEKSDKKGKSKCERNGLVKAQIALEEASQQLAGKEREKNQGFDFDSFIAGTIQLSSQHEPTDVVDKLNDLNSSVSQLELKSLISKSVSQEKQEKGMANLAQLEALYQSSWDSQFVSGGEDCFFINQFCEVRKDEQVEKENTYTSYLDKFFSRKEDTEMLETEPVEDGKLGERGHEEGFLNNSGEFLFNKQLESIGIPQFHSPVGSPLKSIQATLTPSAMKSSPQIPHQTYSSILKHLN

Study 1 — method: protein-binding microarray; form: double-stranded DNA, one strand shown; medium: in vitro; tested at: 940 nM top; setting: 60-bp whole probe; together with: salmon DNA 0.4 mg/ml; reference: random background probes; reading: higher = stronger binding; all sequences stand within: GCCTAGCAC … GTCTTGATTCGCTTGACGCTGCTG
Target: Interferon regulatory factor 5, full length, phosphomimetic (IRF5, Homo sapiens, UniProt Q13568-2, residues 1-514, S451D/S453D/S456D/S462D)
Sequence | fitted relative affinity
TTAGGACTGGGGATCGGTTAGTGCTAG | 0.149 z-score
GACGATATGGGGTATCGAGACGTGCTA | 1.08 z-score
TTGGGTTTCGGGTTTCGGTTAGTGCTA | 10.7 z-score
TTAGGACTGGGTCTCGGTTCGTGCTAG | 0.799 z-score
TCACTCTTTGGCAAAGCCAGGTGCTAG | 0.0447 z-score
GACGGTCTTCTTATCCTGACGTGCTAG | 0.369 z-score
CTTCCTCTTTCTCTGCTACCGTGCTAG | 2.16 z-score
CTTGTTTTACAATTTGCTTTGTGCTAG | -0.0408 z-score

Study 2 — Structure (SMILES): CCC(=N\O)/C(C)=C/c1ccc(F)cc1; read-out: cell-free assay; method: competition with immobilised ligand; tested at: 1 µM
target | remaining binding
Cyclin-G-associated kinase (GAK, Homo sapiens, UniProt O14976) | 99%
Mitogen-activated protein kinase 6 (MAPK6, Homo sapiens, UniProt Q16659) | 73%
MAP kinase-interacting serine/threonine-protein kinase 1 (MKNK1, Homo sapiens, UniProt Q9BUB5) | 56%
Receptor-type tyrosine-protein kinase FLT3 (FLT3, Homo sapiens, UniProt P36888) | 100%
Cyclin-dependent kinase 2 (CDK2, Homo sapiens, UniProt P24941) | 82%
Tyrosine-protein kinase Blk (BLK, Homo sapiens, UniProt P51451) | 87%
Vascular endothelial growth factor receptor 1 (FLT1, Homo sapiens, UniProt P17948) | 87%
Membrane-associated tyrosine- and threonine-specific cdc2-inhibitory kinase (PKMYT1, Homo sapiens, UniProt Q99640) | 100%
Leucine-rich repeat serine/threonine-protein kinase 2 (LRRK2, Homo sapiens, UniProt Q5S007, G2019S) | 100%
Serine/threonine-protein kinase Nek4 (NEK4, Homo sapiens, UniProt P51957) | 83%
Protein-tyrosine kinase 2-beta (PTK2B, Homo sapiens, UniProt Q14289) | 99%
cAMP-dependent protein kinase catalytic subunit alpha (PRKACA, Homo sapiens, UniProt P17612) | 78%
Receptor-interacting serine/threonine-protein kinase 4 (RIPK4, Homo sapiens, UniProt P57078) | 83%

Study 3 — method: Spec-seq; form: double-stranded DNA, one strand shown; medium: in vitro; tested at: not given; setting: whole probe, mean of replicates; reference: not given; reading: lower = stronger binding; all sequences stand within: GAGTCGTCTCGTCAGCAC … CCGTAGAGCACTCAGGTC
Target: POU domain, class 5, transcription factor 1, POU domain (Pou5f1, Mus musculus, UniProt P20263, residues 131-289)
Sequence of UniProt P20263 (131-289, looked up): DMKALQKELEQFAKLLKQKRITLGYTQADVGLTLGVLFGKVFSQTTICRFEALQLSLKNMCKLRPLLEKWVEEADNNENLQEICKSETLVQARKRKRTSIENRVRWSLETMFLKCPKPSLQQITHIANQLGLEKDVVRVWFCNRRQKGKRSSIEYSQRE
Sequence | relative binding energy
ATGCTTAT | -0.109 ln ratio
ATGCGATG | 0.364 ln ratio
AGATTAAT | 0.104 ln ratio
ATATCTAT | 0.117 ln ratio
CCACTAAT | 0.83 ln ratio
ATGCACTT | 0.083 ln ratio
GTACTAAT | 0.608 ln ratio
TAGGTAAT | 0.838 ln ratio

Further values, each from its own experiment
SMILES | cell line | tested at | time | endpoint | result
CO[C@@]1(NC(=O)C(C(=O)O)c2ccc(O)cc2)C(=O)N2C(C(=O)O)=C(CSc3nnnn3C)CO[C@@H]21 (stereo partly drawn) | Huh-7 | 10 µM | 24 h | viability | 97.7%

For quick reference, copied from above (study 2):
target | remaining binding
Protein-tyrosine kinase 2-beta (PTK2B, Homo sapiens, UniProt Q14289) | 99%
cAMP-dependent protein kinase catalytic subunit alpha (PRKACA, Homo sapiens, UniProt P17612) | 78%
